Assay results gathered from unrelated publications.
Every numbered part comes from another study and shows a few of its results, in no order. Values joined by “and” are separate records of one study, mostly repeats; a detail may differ.
Chain of UniProt Q96KB5 (whole entry, looked up): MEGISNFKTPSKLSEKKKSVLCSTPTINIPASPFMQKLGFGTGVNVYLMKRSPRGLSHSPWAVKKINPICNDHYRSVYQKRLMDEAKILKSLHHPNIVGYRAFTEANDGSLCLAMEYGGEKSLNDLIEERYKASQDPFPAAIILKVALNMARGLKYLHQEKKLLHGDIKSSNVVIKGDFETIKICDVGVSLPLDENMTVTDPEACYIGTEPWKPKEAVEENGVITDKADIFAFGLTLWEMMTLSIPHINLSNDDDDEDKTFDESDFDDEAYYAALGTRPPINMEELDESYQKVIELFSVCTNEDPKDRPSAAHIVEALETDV
Chain of UniProt Q5VT25 (whole entry, looked up): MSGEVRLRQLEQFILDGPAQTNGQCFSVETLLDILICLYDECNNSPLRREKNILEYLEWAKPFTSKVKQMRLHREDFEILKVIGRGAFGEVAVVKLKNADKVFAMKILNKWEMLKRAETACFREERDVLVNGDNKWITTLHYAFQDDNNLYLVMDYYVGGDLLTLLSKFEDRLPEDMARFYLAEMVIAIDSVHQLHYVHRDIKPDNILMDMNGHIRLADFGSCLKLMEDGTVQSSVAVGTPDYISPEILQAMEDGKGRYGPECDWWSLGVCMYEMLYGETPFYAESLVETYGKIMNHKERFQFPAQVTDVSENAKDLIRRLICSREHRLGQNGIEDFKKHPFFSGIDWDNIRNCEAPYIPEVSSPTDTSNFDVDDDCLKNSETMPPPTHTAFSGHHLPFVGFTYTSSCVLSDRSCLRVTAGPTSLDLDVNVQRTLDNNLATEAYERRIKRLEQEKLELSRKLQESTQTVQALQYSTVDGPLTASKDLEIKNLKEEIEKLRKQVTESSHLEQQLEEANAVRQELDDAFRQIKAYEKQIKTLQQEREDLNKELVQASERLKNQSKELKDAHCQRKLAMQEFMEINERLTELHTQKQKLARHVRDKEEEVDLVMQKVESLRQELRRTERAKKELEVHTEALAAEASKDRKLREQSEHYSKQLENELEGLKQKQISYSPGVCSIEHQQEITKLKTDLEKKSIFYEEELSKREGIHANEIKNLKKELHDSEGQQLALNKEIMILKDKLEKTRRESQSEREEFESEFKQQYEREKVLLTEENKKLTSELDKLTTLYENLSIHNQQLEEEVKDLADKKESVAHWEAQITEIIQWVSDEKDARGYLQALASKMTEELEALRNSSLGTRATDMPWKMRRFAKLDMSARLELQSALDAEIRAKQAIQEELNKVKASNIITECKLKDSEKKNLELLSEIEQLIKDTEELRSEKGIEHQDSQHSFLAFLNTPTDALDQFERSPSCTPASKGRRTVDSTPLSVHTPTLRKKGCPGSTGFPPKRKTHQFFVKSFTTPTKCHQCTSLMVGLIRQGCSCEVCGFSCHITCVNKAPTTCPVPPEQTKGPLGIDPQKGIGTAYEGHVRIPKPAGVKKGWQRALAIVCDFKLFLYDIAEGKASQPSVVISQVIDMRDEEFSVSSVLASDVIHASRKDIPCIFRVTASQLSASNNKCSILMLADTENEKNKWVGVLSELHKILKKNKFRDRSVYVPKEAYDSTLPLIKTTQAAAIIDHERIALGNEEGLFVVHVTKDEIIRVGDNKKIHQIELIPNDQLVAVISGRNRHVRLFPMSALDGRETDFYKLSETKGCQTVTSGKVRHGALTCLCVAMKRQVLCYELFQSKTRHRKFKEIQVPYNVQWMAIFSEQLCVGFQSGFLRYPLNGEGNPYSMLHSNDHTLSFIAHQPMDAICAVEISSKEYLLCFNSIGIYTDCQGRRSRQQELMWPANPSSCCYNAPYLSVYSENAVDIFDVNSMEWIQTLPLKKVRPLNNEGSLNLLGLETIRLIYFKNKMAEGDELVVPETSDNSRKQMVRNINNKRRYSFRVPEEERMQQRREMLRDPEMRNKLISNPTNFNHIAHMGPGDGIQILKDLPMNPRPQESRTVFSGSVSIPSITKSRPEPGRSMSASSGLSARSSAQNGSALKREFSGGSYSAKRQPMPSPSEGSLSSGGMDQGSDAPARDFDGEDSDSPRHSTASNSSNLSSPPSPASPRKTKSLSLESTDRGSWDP

Set 1
SMILES: CC(C)(C)c1cc(C=C(C#N)C#N)cc(Br)c1O
Effect on: enzyme activity
Mode: inhibitor
Concentration: 0.5 µM
Endpoint: remaining activity
Serine/threonine-protein kinase MRCK alpha (CDC42BPA, Homo sapiens, UniProt Q5VT25); baseline: control: 101%
Tyrosine-protein kinase Fgr (FGR, Homo sapiens, UniProt P09769); baseline: control: 75.4%
Lymphokine-activated killer T-cell-originated protein kinase (PBK, Homo sapiens, UniProt Q96KB5): 102%
Dual specificity tyrosine-phosphorylation-regulated kinase 2 (DYRK2, Homo sapiens, UniProt Q92630): 104%
Serine/threonine-protein kinase NLK (NLK, Homo sapiens, UniProt Q9UBE8); baseline: control: 93.6%

Set 2
Target: Bromodomain-containing protein 4, BD1 (BRD4, Homo sapiens, UniProt O60885)
Effect on: acetyl-histone H4 peptide binding
Method: AlphaScreen displacement
Concentration: 50 µM
Endpoint: inhibition
CCOc1ccc(NC=C2C(=O)NC(=O)N(c3ccccc3)C2=O)cc1: 15.2%
COc1ccc(NC=C2C(=O)NC(=O)N(C)C2=O)cc1: 19.1%
COC(=O)c1ccc(NC=C2C(=O)NC(=O)N(C)C2=O)cc1: 5.9%
CCn1cnc2c(Nc3cccc(Cl)c3)nc(N[C@@H]3CCCC[C@@H]3N)nc21: 45.8%
C=CCN1C(=O)C(=Cc2ccc(OCC(=O)O)cc2)C(=O)N=C1O: 8.9%
COC(=O)C1(O)CC2OC1(C)n1c3ccccc3c3c4c(c5c6ccccc6n2c5c31)C(=O)NC4 (centres unmarked): 30.8%

Set 3
Target: Eukaryotic initiation factor 4A-I (EIF4A1, Homo sapiens, UniProt P60842)
Chain of UniProt P60842 (whole entry, looked up): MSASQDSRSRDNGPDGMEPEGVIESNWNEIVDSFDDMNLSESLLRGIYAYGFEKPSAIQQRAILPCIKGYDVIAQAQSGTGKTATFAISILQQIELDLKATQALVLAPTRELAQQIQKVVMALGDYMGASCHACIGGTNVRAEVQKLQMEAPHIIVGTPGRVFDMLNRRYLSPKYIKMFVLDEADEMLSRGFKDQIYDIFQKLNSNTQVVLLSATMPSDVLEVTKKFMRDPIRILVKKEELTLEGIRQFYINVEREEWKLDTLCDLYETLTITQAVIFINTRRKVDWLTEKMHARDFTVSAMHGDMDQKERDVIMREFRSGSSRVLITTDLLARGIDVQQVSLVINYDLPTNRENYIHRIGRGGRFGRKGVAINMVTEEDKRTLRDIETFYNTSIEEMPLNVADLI
Effect on: RNA clamping
Method: fluorescence polarization
Concentration: concentration not given
Setting: mean of two replicates
With: FAM-labelled poly r(AG)8 RNA
Endpoint: fluorescence polarization change
COc1ccc([C@@]23Oc4cc(OC)cc(OC)c4[C@]2(O)c2nc(-c4ccc(OCc5ccccc5)cc4)[nH]c(=O)c2[C@H]3c2ccccc2)cc1: 5.5 mP
COCCN[C@]12c3c(OC)cc(OC)cc3O[C@@]1(c1ccc(OC)cc1)[C@H](c1ccccc1)[C@@H](C(=O)N(C)C)[C@H]2O: 7.3 mP
COC(=O)[C@@H]1[C@@H](c2ccccc2)[C@]2(c3ccc(Br)cc3)Oc3cc(OC)cc(OC)c3[C@@]1(O)C2(O)O: 4.8 mP
COc1ccc([C@@]23Oc4cc(OC)cc(OC)c4[C@]2(O)C(=O)C[C@H]3c2ccccc2)cc1: 47.3 mP
COC(=O)[C@@H]1[C@@H](c2ccccc2)[C@@]2(c3ccc(Br)cc3)C(=O)[C@]1(O)c1c(OC)cc(OC)cc1N2C: 3 mP
COC(=O)[C@H]1[C@H](c2ccccc2)[C@@]2(c3ccc(OC)cc3)Oc3cc(OC)cc(OC)c3[C@]1(O)[C@H]2O: -1.6 mP
COC(=O)[C@@H]1[C@@H](c2ccccc2)C2(c3ccc(OC)cc3)C(=O)C1(O)c1ccccc1N2C (some centres unmarked): -0.5 mP
COc1cc(F)cc2c1[C@]1(O)[C@H](O)[C@H](/C(N)=N/O)[C@@H](c3ccccc3)[C@]1(c1ccc(Br)cc1)O2: 60.1 mP
COc1ccc([C@@]23Oc4cc(OC)cc(OC)c4[C@]2(O)c2nc(-c4ccc(F)cc4)[nH]c(=O)c2[C@H]3c2ccccc2)cc1: 13.3 mP
C#CCOc1nc(-c2ccccc2)nc2c1[C@@H](c1ccccc1)[C@]1(c3ccc(OC)cc3)Oc3cc(OC)cc(OC)c3[C@]21OCC#C: 13.8 mP
COCC1=N[C@@]2(O)[C@H](C(=O)OC)[C@@H](c3ccccc3)[C@]3(c4ccc(OC)cc4)Oc4cc(OC)cc(OC)c4[C@]23N1: 72.7 mP and 55.5 mP
COc1ccc([C@@]23Oc4cc(OC)cc(OC)c4[C@]2(O)c2nc(Cc4ccccc4)[nH]c(=O)c2[C@H]3c2ccccc2)cc1: 32.5 mP
COc1ccc([C@@]23Oc4cc(OC)cc(OC)c4[C@]2(O)c2nc(-c4cccc(C)c4)[nH]c(=O)c2[C@H]3c2ccccc2)cc1: 17.8 mP
CCOc1ccccc1-c1nc2c(c(=O)[nH]1)[C@@H](c1ccccc1)[C@]1(c3ccc(OC)cc3)Oc3cc(OC)cc(OC)c3[C@]21O: 62 mP
COc1ccc([C@@]23Oc4cc(OC)cc(OC)c4[C@@]24NC(C2CC2)=N[C@@]4(O)[C@H](C(=O)N(C)OC)[C@H]3c2ccccc2)cc1: 79.1 mP
COC(=O)[C@@H]1[C@@H](c2ccccc2)[C@]2(c3ccc(OC)cc3)Oc3cc(OC)cc(OC)c3[C@@]23N=C(C2CC2)N[C@@]13O: 85.7 mP and 61.1 mP

Set 4
Target: DNA polymerase theta, ATPase domain (POLQ, Homo sapiens, UniProt O75417)
Chain of UniProt O75417 (whole entry, unmodified, looked up): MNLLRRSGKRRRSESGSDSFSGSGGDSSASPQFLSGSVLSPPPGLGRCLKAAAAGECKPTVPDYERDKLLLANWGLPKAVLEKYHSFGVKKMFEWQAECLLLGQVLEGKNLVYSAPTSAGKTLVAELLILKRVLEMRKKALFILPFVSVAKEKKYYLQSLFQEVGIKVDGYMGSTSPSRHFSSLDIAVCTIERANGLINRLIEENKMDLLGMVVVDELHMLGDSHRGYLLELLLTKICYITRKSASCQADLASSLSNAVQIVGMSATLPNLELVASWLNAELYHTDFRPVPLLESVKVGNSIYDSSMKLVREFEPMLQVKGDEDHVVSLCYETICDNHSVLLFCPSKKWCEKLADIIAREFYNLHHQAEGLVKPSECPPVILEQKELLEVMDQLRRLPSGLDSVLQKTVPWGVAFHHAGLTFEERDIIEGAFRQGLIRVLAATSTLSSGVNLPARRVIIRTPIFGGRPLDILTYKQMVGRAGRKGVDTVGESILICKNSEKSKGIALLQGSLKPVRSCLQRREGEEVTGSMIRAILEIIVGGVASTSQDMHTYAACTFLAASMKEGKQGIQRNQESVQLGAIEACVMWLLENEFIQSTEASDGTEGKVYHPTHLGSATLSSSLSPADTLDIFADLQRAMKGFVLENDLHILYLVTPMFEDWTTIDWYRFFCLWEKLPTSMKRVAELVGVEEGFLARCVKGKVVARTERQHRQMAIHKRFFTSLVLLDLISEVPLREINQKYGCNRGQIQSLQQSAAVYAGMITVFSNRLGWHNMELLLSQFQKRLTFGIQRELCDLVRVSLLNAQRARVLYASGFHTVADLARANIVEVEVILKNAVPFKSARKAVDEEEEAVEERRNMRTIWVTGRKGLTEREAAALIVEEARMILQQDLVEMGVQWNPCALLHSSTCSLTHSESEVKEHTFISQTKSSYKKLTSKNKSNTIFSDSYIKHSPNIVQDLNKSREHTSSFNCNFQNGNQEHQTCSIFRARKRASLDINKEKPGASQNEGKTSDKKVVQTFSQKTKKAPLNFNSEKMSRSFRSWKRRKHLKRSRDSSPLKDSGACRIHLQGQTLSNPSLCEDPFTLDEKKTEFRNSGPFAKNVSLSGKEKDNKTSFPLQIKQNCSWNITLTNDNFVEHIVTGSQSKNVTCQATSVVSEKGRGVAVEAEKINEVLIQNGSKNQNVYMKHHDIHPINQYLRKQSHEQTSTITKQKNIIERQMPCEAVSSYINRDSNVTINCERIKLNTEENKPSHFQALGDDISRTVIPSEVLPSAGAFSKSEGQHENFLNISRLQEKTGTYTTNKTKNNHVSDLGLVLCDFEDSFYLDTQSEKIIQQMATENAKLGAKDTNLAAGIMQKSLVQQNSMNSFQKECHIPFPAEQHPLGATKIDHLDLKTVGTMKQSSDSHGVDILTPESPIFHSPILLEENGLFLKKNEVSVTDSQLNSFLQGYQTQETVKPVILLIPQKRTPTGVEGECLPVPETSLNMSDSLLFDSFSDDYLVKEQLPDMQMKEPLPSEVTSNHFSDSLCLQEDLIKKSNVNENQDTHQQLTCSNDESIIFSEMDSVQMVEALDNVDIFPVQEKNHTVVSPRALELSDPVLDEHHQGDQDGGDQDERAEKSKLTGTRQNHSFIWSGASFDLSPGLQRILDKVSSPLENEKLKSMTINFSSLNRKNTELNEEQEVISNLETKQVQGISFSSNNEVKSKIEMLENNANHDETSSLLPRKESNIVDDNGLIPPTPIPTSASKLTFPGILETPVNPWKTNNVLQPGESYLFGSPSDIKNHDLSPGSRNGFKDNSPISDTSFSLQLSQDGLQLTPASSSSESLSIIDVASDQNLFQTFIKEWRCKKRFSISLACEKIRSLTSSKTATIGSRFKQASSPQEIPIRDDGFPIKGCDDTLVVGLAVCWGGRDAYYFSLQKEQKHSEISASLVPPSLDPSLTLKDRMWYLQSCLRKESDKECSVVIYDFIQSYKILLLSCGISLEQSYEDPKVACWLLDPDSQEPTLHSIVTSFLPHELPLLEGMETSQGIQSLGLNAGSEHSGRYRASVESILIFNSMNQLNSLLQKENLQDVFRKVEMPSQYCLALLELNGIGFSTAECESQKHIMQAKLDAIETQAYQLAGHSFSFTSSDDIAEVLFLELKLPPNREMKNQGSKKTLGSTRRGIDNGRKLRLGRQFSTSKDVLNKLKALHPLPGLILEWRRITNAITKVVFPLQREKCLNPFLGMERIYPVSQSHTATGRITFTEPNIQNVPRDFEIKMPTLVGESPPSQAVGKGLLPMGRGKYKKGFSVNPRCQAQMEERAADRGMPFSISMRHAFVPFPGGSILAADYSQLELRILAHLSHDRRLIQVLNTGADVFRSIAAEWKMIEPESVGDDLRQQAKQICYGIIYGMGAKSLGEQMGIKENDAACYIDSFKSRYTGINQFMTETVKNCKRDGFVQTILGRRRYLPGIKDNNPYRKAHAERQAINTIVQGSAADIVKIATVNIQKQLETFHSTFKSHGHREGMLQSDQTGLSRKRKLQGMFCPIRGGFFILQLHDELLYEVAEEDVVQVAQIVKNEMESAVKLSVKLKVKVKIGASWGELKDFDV
Effect on: enzyme activity
Mode: inhibitor
Concentration: 77 µM
Baseline: untreated
Endpoint: remaining activity
COc1ccccc1N1CCNCC1: 98.2%
COC[C@H]1OC(=O)c2coc3c2[C@@]1(C)C1=C(C3=O)[C@@H]2CCC(=O)[C@@]2(C)C[C@H]1OC(C)=O: 88.4%
Oc1noc2c1CCNC2: 98.4%
COc1ccc(CN2CCNCC2)c(OC)c1OC: 98.7%
C/C=C(\C)C(=O)N[C@@H](c1ccccc1)[C@@H](O)C(=O)O[C@H]1C[C@@]2(O)[C@@H](OC(=O)c3ccccc3)[C@@H]3[C@]4(OC(C)=O)CO[C@@H]4C[C@H](O)[C@@]3(C)C(=O)[C@H](OC(C)=O)C(=C1C)C2(C)C: 102%
